# Published values pooled from the literature.
# A part holds a random share of what one study measured. Positions count from the first letter of the parent shown.

# Series 1
# Target: Interferon regulatory factor 5, full length, phosphomimetic (IRF5, Homo sapiens, UniProt Q13568-2, residues 1-514, S451D/S453D/S456D/S462D)
# Technique: protein-binding microarray
# Form: double-stranded DNA, one strand shown
# Matrix: in vitro
# Concentration: 940 nM top
# Notes: 60-bp whole probe
# Together with: salmon DNA 0.4 mg/ml
# Baseline: random background probes
# Direction: higher = stronger binding
# All sequences stand within: GCCTAGCAC … GTCTTGATTCGCTTGACGCTGCTG
Oligonucleotide,fitted relative affinity
AGCCTGGCCAAGCTCACAGCGTGCTAG,-0.904 z-score
TTAGAACTTGGGTATCGATTAGTGCTA,3.22 z-score
GCACTCTTCTTTTTTTTCTTGTGCTAG,1.09 z-score
TTATGACTGCTTCTCCTTTAGTGCTAG,0.442 z-score
TCAGGTTAAAATTTTGCACTGTGCTAG,-0.239 z-score
GACGGACTGGGTTTCGGGACGTGCTAG,2.42 z-score
GACGGACTAGACTTTCGGGACGTGCTA,0.101 z-score
GACGAGTTCAGTTCCGAGACGTGCTAG,0.564 z-score
AATTAGGTTTCACTTTCCAAAGTGCTA,8.72 z-score
TTAGGACTGGGTGTCGGTTAGTGCTAG,-0.075 z-score
TTAGGTATCGGTTTTGGTTAGTGCTAG,9.68 z-score
TTGGGTCTCCTACTGCTTTAGTGCTAG,0.357 z-score
TTAGGTTTCTGTTCCGGTTAGTGCTAG,7.27 z-score
AACGGTCTCGGACTGGGGACGTGCTAG,0.735 z-score
TTAGGTCTCTGTCTCGGTTAGTGCTAG,2.85 z-score
GACGGACTGGGTCTCGGCACGTGCTAG,-0.0922 z-score
GACGGACTGGAGACTGGGGACGTGCTA,-0.54 z-score
CTAGATCTCAGTCTCGATTAGTGCTAG,3.14 z-score
TCAGATTTCTCAAACAGACTGTGCTAG,0.394 z-score
AGGAATCTTGAGTTAGAGACGTGCTAG,-0.316 z-score

# Series 2
# Target: Histone acetyltransferase KAT6A, both winged helices, GST fusion (KAT6A, Homo sapiens, UniProt Q92794, residues 1-181)
# Technique: protein binding microarray
# Form: double-stranded DNA, one strand shown
# Matrix: in vitro
# Concentration: not given
# Notes: 8-mer, flanks averaged, mean of 2 arrays, mostly near background
# Baseline: not given
# Direction: higher = stronger binding
# Residues (chain): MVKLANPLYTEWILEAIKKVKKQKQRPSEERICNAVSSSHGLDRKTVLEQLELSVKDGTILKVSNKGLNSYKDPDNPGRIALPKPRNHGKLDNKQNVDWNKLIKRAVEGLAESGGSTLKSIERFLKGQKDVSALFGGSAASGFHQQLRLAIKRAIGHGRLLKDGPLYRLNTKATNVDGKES
Oligonucleotide,E-score
GGCGTCAC,0.154
TTGTGAAA,-0.0269
ACTATTAT,-0.0778
ACACTACT,-0.206
AGACCCGA,0.0469
AGAAAGCG,0.168
ATAGTCAC,-0.091
GCTAGAAA,0.0989
AGTCGACA,-0.142
GGCGAATA,0.125
TAAGACGA,-0.124
CGGTCGAA,0.165
GTCCAGAA,0.0656
GCTGAGCC,0.0239
AAGAATCG,0.169
GAGCCCCA,-0.236
GGCGCAGA,0.176
TAGCGTCA,0.143
ACATTAAC,-0.0774
AAACGCAC,0.0471
AGATTAGG,-0.119
AGGGGGAG,-0.314
CAACAACG,-0.0349
CGAAGATA,-0.0741
AGATAGTG,-0.0824

# Series 3
# Target: Sal-like protein 4, full length isoform A (SALL4, Homo sapiens, UniProt Q9UJQ4, residues 1-1053)
# Chain of UniProt Q9UJQ4 (whole entry, looked up): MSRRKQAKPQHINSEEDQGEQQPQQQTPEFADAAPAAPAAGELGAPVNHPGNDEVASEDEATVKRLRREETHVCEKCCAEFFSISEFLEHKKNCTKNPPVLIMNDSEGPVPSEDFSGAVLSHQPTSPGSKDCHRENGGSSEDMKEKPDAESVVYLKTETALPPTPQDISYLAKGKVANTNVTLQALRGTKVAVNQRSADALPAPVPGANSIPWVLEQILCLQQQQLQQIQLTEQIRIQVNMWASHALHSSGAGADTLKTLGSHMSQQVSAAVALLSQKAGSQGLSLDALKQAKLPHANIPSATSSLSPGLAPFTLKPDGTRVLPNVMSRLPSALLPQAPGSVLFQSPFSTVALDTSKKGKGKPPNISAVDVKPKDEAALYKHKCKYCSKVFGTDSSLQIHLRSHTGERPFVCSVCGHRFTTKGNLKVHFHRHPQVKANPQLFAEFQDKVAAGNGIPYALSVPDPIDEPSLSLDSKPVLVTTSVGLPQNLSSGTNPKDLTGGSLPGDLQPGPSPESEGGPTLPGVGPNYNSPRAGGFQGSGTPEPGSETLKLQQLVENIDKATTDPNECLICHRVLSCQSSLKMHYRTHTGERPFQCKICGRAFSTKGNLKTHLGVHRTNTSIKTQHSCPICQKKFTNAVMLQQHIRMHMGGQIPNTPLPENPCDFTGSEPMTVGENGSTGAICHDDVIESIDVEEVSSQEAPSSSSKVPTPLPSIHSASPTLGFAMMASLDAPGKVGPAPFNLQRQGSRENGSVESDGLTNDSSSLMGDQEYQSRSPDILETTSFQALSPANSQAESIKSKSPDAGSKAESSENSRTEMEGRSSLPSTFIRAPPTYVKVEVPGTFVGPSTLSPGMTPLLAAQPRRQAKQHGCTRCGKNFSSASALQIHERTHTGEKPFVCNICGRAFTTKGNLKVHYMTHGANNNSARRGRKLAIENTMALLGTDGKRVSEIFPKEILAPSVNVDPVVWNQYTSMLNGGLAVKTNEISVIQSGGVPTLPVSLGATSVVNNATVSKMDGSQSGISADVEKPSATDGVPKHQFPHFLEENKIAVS
# Technique: universal PBM
# Form: double-stranded DNA, one strand shown
# Matrix: in vitro
# Concentration: 600 nM
# Notes: 8-mer, flanks averaged, mean of replicates
# Direction: higher = stronger binding
Oligonucleotide,E-score
GCCATGGC,-0.188
ACTGCGTG,-0.133
CTGAGTCC,-0.268
TCCGACCA,-0.065
AGGGGGAG,-0.21
CACCACGG,-0.318
CTACGAAG,-0.107
CGTCGATA,0.0309
CCAGTTAC,-0.181
CCGTGTAC,-0.0732
CGAGCCGC,-0.134
CAGTAGGG,-0.221
AGCGACTC,-0.286
CAGAGTCA,-0.142
AGACCCTA,-0.127
ACTCACCT,-0.192
ACAAACAC,0.135
CGAGGGAA,-0.121
AACTTCGT,0.00139
AAGAGGCT,-0.0449
GACGTGCA,0.0724
GCTTACCC,-0.13

# Series 4
# Target: ABI1, truncated, D143A, DHFR fusion (Arabidopsis thaliana)
# Technique: DHFR PCA, deep sequencing
# Matrix: yeast
# Notes: methotrexate growth selection, single substitutions
# Together with: (+)-ABA 200 µM
# Baseline: wild-type fitted maximum
# Direction: higher = stronger binding
# Starting sequence: PYL1, truncated, DHFR fusion (Arabidopsis thaliana); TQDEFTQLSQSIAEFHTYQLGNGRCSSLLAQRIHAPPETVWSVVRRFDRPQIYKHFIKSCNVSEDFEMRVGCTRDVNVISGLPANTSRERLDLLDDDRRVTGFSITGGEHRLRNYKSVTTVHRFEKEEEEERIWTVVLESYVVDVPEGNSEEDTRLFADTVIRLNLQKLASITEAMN
Variant,relative binding score [%]
L20I,102
T173M,86.9
L20Y,98.2
E67I,99.7
F15E,59.2
G21W,93.6
D3I,95.6
L156S,95.3
P37N,46.5
T6Q,101
L112R,-6.89
N149Y,26.5
V70W,42.1
H110E,17.2
Y18P,101
I162N,46.8

# Series 5
# Target: RNA binding protein fox-1 homolog 2, RRM domain, GST-SBP tag (RBFOX2, Homo sapiens, UniProt O43251-10, residues 100-194)
# Technique: RNA Bind-n-Seq
# Form: RNA
# Matrix: in vitro
# Concentration: 365 nM
# Notes: natural RNA segment, single round, ends assumed
# Baseline: no-protein control
# Direction: higher = stronger binding
# All sequences stand within: GGGAGUUCUACAGUCCGACGAUC … UGGAAUUCUCGGGUGCCAA
# Construct (chain): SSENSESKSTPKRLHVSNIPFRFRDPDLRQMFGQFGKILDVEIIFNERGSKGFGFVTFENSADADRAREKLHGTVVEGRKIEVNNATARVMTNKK
Oligonucleotide,RBNS enrichment (R)
GGCAAAUAAGACCCCACCCCUCCCUGCAGCUUCACAGGGACGCUUCCUUCCCUCCCCGCAACCACCCCAGGCUCCCCUGGGAGGCUGCAGUUGUGGUACACGUCCCCGGU,0.518
UAGAAUUAAGUUAAUUUCUUCUCUUUCCAUCUACCUUUUUAUAAAUACAUAUCUAUGUCUCAUAAAAAUUAGAAUGUACUAUUUUAAAAUAAUAUGUGUAAAUUGAAAUU,0.818
UUCCAUGUAGAGGGUGACGAACUCUGGAUUCCCCCCCACCCCCACCCCGUGCCGUGUAGACACUCAUCUUCUGCAUGACAUGAUCUACCAUUCGGUGUAAACAUUUGUGU,0.348
AAACAUUCCACUCCUGCUUUCCUAAGGAUGAAACAGUGAUAAUGUGAACUCAAAUGAGGUUUCCUGGGUAAUGUGACACCUGCAGAAACUAUAGAGCGUCAUUUAUACGU,0.384
AGUACCUAUCCUUGUGUUUCUGAUGCAGUGGUAGCAUUGGUUCAAGUUCUCUCCUGCUGUGGUCAGAGUUGCUUCGAUGUUGGCCAAGUGCUUUUCUUCUUGGGCUCCCU,0.309
ACUUAAGUAUGGGAUACAGCACAUGGAUGCACCCCUCUGUGUGUCAGGCAUCCUCCAUGUGGACUCACUGUGCUGUUGGGACUGAAACACUAACUUUGUAAAAUGUGUCU,0.653
AUUACUUAAGUAUUUAAAUUAUGAAAGAAUAAUGCAGACUUUUUAUUAUUUCUUAACUGACUAGAAAGAGCCACCAGCAUUACUCUGUGCCUUUUGGACUUGAGUUUGUA,0.821
CAGUCUCUGGGAGACUUUCCCUAAGAGGCGACUUCCUCUCCAGCCUUCUCUCUCUGGUCAGGCCCACUGCAGAGAUGGUGGUGAGCACAUCUGGGAGGCUGGUCUCCCUC,0.302
UUAGGAGAAGUCUUUGUAGUCUCUUUAUGUUCAUAAUGAAUACUGUAUCAAUAUUUCCUAACAUGAAGCAGUCAAACAUGUAUGGCACAUACUGACCAGACGUCAGUCUG,0.316
UGCACUCUUGGCUGGUGUGAGUCAGCUACAGAGAAGGUAAUACGCCAUGUGGGAGGCCAAGGAGGCUGCAGUGAGACUCUUCCACGGAACCAUGACGCUAGUGCAGUGAC,0.376
AGUUAGGAGGUGCAGACACUUGCUCUCCUAUGUAGUUCUCAGAUGCGUAAAGCAGAACAGCCUCCCGAAUGAAGCGUUGCCAUUGAACUCACCAGUGAGUUAGCAGCACG,0.187
CUAGGGAAAAACAUAUCUGUUCCAAGAAAAUAAACUAGUUCUCAGAGCCUUGAUUUUCCUGGUCAGGGUGAAGUUCCCUGUGUGUCUGUAAAAUAUGAACAAGGAUUCAU,0.349

# A few entries again (series 2):
Oligonucleotide,E-score
GCTAGAAA,0.0989
AGTCGACA,-0.142
GGCGAATA,0.125
TAAGACGA,-0.124
CGGTCGAA,0.165
GTCCAGAA,0.0656
GCTGAGCC,0.0239
AAGAATCG,0.169
